Results gathered from unrelated publications.
Each numbered part is a random draw from the data of one study; scales do not carry over between parts.

Set 1 — method: RNA Bind-n-Seq; form: RNA; medium: in vitro; tested at: not given; relative to: input RNA pool; direction: higher = stronger binding; quantity: bound/input enrichment
Target: RING finger protein unkempt homolog, zinc fingers 1-6, GST-SBP tag (UNK, Homo sapiens, UniProt Q9C0B0, residues 30-357)
Setting: RNA with constant flanks, human and mouse sites, ends assumed
Constant ends, left off below: GGGAGUUCUACAGUCCGACGAUC … CAACAGAGGAUUGAGCAUCA
Construct (chain): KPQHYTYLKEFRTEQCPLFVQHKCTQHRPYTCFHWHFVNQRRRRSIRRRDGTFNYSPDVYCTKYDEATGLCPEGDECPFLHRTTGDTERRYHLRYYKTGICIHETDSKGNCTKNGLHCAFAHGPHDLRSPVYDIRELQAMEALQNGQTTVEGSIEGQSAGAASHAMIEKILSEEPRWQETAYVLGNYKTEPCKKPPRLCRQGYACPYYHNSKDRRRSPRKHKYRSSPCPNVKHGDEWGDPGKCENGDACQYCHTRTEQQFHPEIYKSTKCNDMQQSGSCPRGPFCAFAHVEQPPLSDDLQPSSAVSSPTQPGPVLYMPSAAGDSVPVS
AUCAUCGAGGCAUUUUAUGGAGGCUCCCAUCGACAGCUGGUAGAGCUGCUCCGAGAAGAAUUAGAUGACUGCGUGUUGUACACUCUUCCUGCAAAGAAAUGGCACUGGAGAGCACGCACA: 0.456 ratio
AUUGUGUACACUGGAACAGAAUUAGCACAAAAUCGAGAACUCCCUUUGAGAAAAGAUGAUGGUGUCGAUGCUCAGAGUGGAACCAAGAAAGAAGAUCUUAAUGACAAAGAGAAGAAGGAA: 0.235 ratio
GUUGGAGCAGGCCAGGGAUUGAGGCCCACCUUCCCACAUAUACCAAGUAGAUAUGGAAUCAACAGGAUGGGGCAGCCAAGACCCUGACAGACUCUAACUUAUUGUGAUGGGGAAUAGCGA: 0.611 ratio
CUCAAUCAAGAGGAUUCAGACAAUGAGAAAAUUGCCUUAUUGCAGAGCCUUCUAGAUGAUGCAAAUCUACGCAAGAAUGAGCUGGAGACGGAGAACAGGCUUGUGAAUCAGAGACUUCUA: 0.0705 ratio
UUAUUACUUCAAGCUGUCAAUUCUCACUGUUUCCCAGCAUUCCUAGCUAUUCCACCUGCACAGUUCAAGCUGGUUUUGGAUUCUAUUAUUUGGGCUUUUAAACAUACUAUGAGGAAUGUU: 0.38 ratio
AACUUACAGCCUCUUUCUGAAAGGCUGACACUUCUUGCCAUUUUCAUAUCAACUUUUCUCUUUAGUCUGACAUGGCAAUUUAAUCAAUUUAUGAUGCUGAUGCAAGCAUUAGUGCUGUUC: 1.56 ratio
CUGAAGAGUGUUUCUGAAAGAUCUAUCCAGCACUCCGAUGGCCAGCAACAACACCGCCAGCAUAGCACAAGCCAGGAAGCUGGUAGAGCAGCUUAAGAUGGAAGCCAAUAUCGACAGGAU: 0.115 ratio
GGGCACUGAUCUUCGAUCGCGAAGAUGGCUGCUGGCUGCCUGCUGGCCUUGACUCUGACACUUUUCCAAUCUGGGCUGAUCGGCCCCUCGAGCGAGGAGCCCUUCCCUUCGCCCGUCACU: 0.123 ratio
ACAUCAAUGCAAGCUUGAAUAAGAAAAACAAAUUCUUCCUCCUAAGCCAUGGCAUAUCAGUUAUACAGAAAUACUACUUUGGGAAACAGUCUUCAGGAGAGCCUAGAUGAGCUCAUACAG: 0.322 ratio
CUGUCAAAACGACGGAGUCAGUUAAAACAAGCAGUUGCAAAAAUGGUUCAGCAGUGCUGUACUUACGUGGAGGAGAUCACAGACCUGCCAGUCAAGCUGCGAUUGAUUGAUACUCUGCGG: 0.117 ratio
GGUGGGGAGGGCAAUGUGGGGGCAGGGGAACAUGUCAUUGUGAUGACUUUUUUGAUAUUCAUUAGAAACAAUACAUCCUUUCUGAGAUAUUUACAGUAUUAUUAAAAAAUGAAAAAGGUU: 0.715 ratio

Set 2 — method: protein binding microarray; form: double-stranded DNA, one strand shown; medium: in vitro; tested at: not given; relative to: not given; direction: higher = stronger binding; quantity: E-score
Target: Histone acetyltransferase KAT6A, winged helix 1, GST fusion (KAT6A, Homo sapiens, UniProt Q92794, residues 1-85)
Setting: 8-mer, flanks averaged, mean of 2 arrays, mostly near background
Construct (chain): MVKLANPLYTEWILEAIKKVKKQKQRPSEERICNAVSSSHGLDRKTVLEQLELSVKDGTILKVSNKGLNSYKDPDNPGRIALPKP
CCTTTGGC: -0.194
CACGCGTA: 0.285
CCCATTTC: -0.247
GAGACCAA: -0.0576
GCGTGTCC: 0.221
AAGTACAA: -0.0793
CAGCTGAC: -0.0114
CGCACGAC: 0.217
GACAAAGA: -0.162
GGTCCTTA: -0.0576
ATGCTTCC: -0.22
GCGCTTTA: 0.325
ACCGTGCT: -0.0151
ATGTAAAA: -0.0308
GCATTTCA: -0.0943
AAGGATGC: -0.0869
CCCCCTAG: -0.248

Set 3 — method: protein-binding microarray; form: double-stranded DNA, one strand shown; medium: in vitro; tested at: 2540 nM top; setting: 60-bp whole probe; with: salmon DNA 0.4 mg/ml; relative to: random background probes; direction: higher = stronger binding; quantity: fitted relative affinity; constant ends, left off below: GCCTAGCAC … GTCTTGATTCGCTTGACGCTGCTG
Target: Interferon regulatory factor 3, full length, phosphomimetic (IRF3, Homo sapiens, UniProt Q14653, residues 1-427, S386D/S396D/S398D/S402D/T404D/S405D)
UniProt Q14653, sequence (whole entry, unmodified, looked up): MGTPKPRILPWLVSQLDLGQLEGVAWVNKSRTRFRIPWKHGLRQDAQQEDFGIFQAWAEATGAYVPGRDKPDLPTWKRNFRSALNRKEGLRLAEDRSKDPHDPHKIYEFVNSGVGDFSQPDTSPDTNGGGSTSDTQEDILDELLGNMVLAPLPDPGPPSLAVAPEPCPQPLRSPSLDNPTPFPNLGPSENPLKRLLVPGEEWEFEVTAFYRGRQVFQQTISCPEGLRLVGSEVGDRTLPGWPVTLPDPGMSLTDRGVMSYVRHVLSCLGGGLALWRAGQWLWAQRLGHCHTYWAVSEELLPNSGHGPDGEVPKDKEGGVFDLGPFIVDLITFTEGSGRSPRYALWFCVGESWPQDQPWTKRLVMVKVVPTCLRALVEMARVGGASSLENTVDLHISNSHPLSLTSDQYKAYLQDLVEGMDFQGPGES
TCATTTCTCCCAAGTCTTACTGTGCTA: 2.48 z-score
TTAGGTATCTACTATCGGTTAGTGCTA: 0.545 z-score
TTATGTTTCGGTCTCGGTTAGTGCTAG: 7.55 z-score
TTAGGTTTCATTTTCCTTTAGTGCTAG: 7.66 z-score
TCATTTATCAAATGTGGGACTGTGCTA: 1.16 z-score
TTAGCACTGGGTATCGGTTAGTGCTAG: 0.441 z-score
GACGGACTGGACTTTCAGGACGTGCTA: -0.142 z-score
TAAGATTTCGGGTTTCGATTAGTGCTA: 3.22 z-score
TCAACTTTGAATTAGAAACTGTGCTAG: 0.147 z-score
TTTGGTTTCGGGTATCGGTTAGTGCTA: 5.02 z-score
TTAGATATCGGGTATCGATTGGTGCTA: 0.116 z-score
TCACATTGAGATTTCCAACTGTGCTAG: 0.792 z-score
TCAACATTCACCATGGCACTGTGCTAG: 0.033 z-score
TTAGAACTGCGGTATCGATTAGTGCTA: 0.322 z-score
TCACTTTTGGCTTTCCTACTGTGCTAG: 1.72 z-score
TTAGAACCGAGACTGGATTAGTGCTAG: -0.0475 z-score
TTAGGTTTCGGGTTGCGGTTAGTGCTA: 4.32 z-score
TGAAGAATGCCTTTAATAAGGTGCTAG: -0.271 z-score
TCAGATTTCAGTTTCGATTAGTGCTAG: 6.13 z-score

Set 4 — method: RNA Bind-n-Seq; form: RNA; medium: in vitro; tested at: 200 nM; setting: whole 134-nt RNA, ends assumed; with: 150 mM LiCl; relative to: input library; direction: higher = stronger binding; quantity: log2 enrichment; all molecules: 7-deaza-guanosine replaces G
Target: Ras GTPase-activating protein-binding protein 1, full length (G3BP1, Homo sapiens, UniProt Q13283)
UniProt Q13283, sequence (whole entry, looked up): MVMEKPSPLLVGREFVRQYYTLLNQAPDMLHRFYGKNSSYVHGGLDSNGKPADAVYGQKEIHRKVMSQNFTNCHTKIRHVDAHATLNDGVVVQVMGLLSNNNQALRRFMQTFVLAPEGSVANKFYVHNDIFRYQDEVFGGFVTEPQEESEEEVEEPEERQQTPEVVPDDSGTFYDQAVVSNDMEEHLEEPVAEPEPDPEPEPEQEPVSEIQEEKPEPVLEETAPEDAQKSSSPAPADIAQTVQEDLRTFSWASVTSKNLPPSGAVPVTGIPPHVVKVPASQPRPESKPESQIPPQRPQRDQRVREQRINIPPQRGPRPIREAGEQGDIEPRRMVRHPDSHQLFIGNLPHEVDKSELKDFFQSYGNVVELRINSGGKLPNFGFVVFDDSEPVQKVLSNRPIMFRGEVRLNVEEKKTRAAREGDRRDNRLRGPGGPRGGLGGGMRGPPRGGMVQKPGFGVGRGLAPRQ
Constant ends, left off below: GGGAGUUCUACAGUCCGACGAUC … UGGAAUUCUCGGGUGUCAAGG
UUUCCCCUGGAGGGCGCCUCCAUCCUUGGAGGCCUAGUGCCGUCGGAGAGAGAGCGGGAGCCGCGGACAGAGACGCGUGCGCAAUUCGGA: -1.53
ACCAUUCAGGUGGGCAUCUUUGGGAAGUGGGGCAAGGGGGGGAUAGGGAGGGGGGUAACACUUUGGGAACAGGUGGUCCCAGGUCGUUUC: 0.413
AAGUCCUGUGCUACACAUCGUAUGUACCGAAUCGGUUUGGUUUUUUUGGAAAAAGGAAAGUAUUAUGUUACGCCGUUCGGAUCUGCACUU: -1.16
ACCAUGCAGGUGGGCAUCUUUGGGAAGUGGGGCAAGGGGGGGAUAGGGAGGGGGGUAACACUUUGGGAAUAGGUGGUCCCAGGUCGUUUC: -0.00933
CAAGUCCUGUGCUACACAUCGUAUGUACCGAAUCGGGAAAGGGUGGGAAAAAGGGAAAGUAUUAUGUUACGCCGUUCGGAUCUGCACUUC: -0.571
UGGGAGGUGGAUUUUGUUUAUUUUUUUAGCUCAUUCCCAGGGGUGGGAAUUUUUUUUUAAUAUGUGUCAUGAAUAAAGUUGUUUUUGAAA: -0.146
UAACUUUAGAGGAGGAUCUGAUGGAUAUGGCAGUGGACGUGGAUUUGGGGAUGGCUAUCAUGGGUAUGGAGGAGGACCUGGAGGUGGCAA: -0.194
ACCAUGCAGGUGGGAAUCUUUGGGAAGUGGGGCAAGGGGGGGAUAGGGAGGGGGGUAACACUUUGGGAACAGGUGGUCCCAGGUCGUUUC: 0.136
UCCUGUGCUACACAUCGUAUGUACCGAAUCAAACCCCCCCAAACCCAAAUUUUUUUAAAAAAGUAUUAUGUUACGCCGUUCGGAUCUGCA: 1.23
AAGUCCUGUGCUACACAUCGUAUGUACCGAAUCGGGGUUUUGGUUUUGGGUUUUGGGAAAGUAUUAUGUUACGCCGUUCGGAUCUGCACU: 0.0933
AAGUCCUGUGCUACACAUCGUAUGUACCGAAUCGGGGAAAGGGGAGGGGAAAGGGGAAAGUAUUAUGUUACGCCGUUCGGAUCUGCACUU: 0.761

Excerpt of the above (set 2):
CCCATTTC: -0.247
GCATTTCA: -0.0943
GAGACCAA: -0.0576
GGTCCTTA: -0.0576
GACAAAGA: -0.162
GCGTGTCC: 0.221
ATGCTTCC: -0.22
CAGCTGAC: -0.0114
CACGCGTA: 0.285
CGCACGAC: 0.217
